Measurements of several laboratories.
Each line is one published result; not all experiments were run side by side. Numbers after ± are the reported error.
Method: steady-state kinetics
B1: enzyme H376D (Acetivibrio thermocellus, UniProt A3DJ38); chain MKLTIPELSLVVLIGSSGSGKSTFAKKHFKPTEVISSDFCRGLVSDDENDQTVTGAAFDVLHYIVSKRLQLGKLTVVDATNVQESARKPLIEIAKDYHCFPVAVVFNLPEKVCQERNKNRTDRQVEEYVIRKHTQQLKKSIKGLQREGFRYVYILNSPEEVEEVVFERQPLWNNKKDEHGPFDIIGDIHGCYDELKMLLEKLGYLIEEVEGGVGSGKYRVTHPEGRKVLFLGDLVDRGPKITEVLKLVMGMVKSGIALCVPGNHDVKLLRKLNGRDVQITHGLDRTLEQLAKEPQEFIEEVKAFIDGLVSHYVLDDGKLVVAHAGMKEEFQGRGSGKVREFALYGETTGETDEYGLPVRYDWASDYRGKALVVYGDTPQAEVLKVNNTINIDTGCVFGGKLTAYRYPEREIVDVKALKTYYEPAKPFLPKEDMAERFEARTDNDILDINDVLGKKIITTRLMSSITIHEENSIAALEVMSRFAADPHWLIYLPPTMSPCETSKKEGMLEHPIEAFEYFRTRGVGKVVCEQKHMGSRAVVIVCKDSQVAEKRFGVLDGTAGICYTRTGRHFFDDMQLEAELIDRVRKVLDKSGFWGDFNTDWVCLDCELMPWSAKAQKLLEEQYSAVGISGRVVLDEAVKLLKQASLNKTVSFDVSRQTSGKNADINELLQRFTERSEMMQKYVEAYRKYCWPVNSIDDLKLAPFHILATEGKVHSDKNHIWHMDTIAKYCTQDDSLIMATNHILVDVTDAESVDKGIKWWEDLTASGGEGMVVKPYDFIVKNGRELLQPAVKCRGREYLRIIYGPEYTMDENIERLRNRAVGKKRSLALREFSLGMEALERFVRNEPLYRVHECVFGVLALESEPVDPRL
B2: enzyme L163H/N249W (Thermobifida fusca, UniProt Q47RK4); chain MTDVYILDAVRTPFGRYGGALSGIRPDDLAAHVLRALAERSPGLDPAAVDDVFFGDANGAGEDNRNVARMAALLAGWPTSVPGVTLNRLCGSGMESVIAANRAIAVGDASLAVAGGVESMSRAPWVLPKPAQGFPTGHETLYSTTLGWRMVNPAMPEQWTVSHGESTEQVAATYGISRAEQDAFALRSHERAARAWAEGVFDAEITQIPGAELERDESIRETSAEKLAALKPAFRPDGTITAGNASPLWDGAAALLIGDAAAAERVGREPLARIVSRGVAAVDPDVFGIGPVQAAEIALRRAGIGWDDLSVVELNEAFAAQSLACLKLWPDLDPEIVNPNGGAIAIGHPLGASGARIVGTLAHELHRRGGGWGLAAICIGVGQGLAVVLHR
B3: GLYR2 (Arabidopsis thaliana, UniProt F4I907); chain STRDELGTVSIGFLGMGIMGSPMAQNLIKAGCDVTVWNRTKSKCDPLVGLGAKYKSSPEEVTATCDLTFAMLADPESAIDVACGKNGAIFGISSGKGYVDVSTVDVASSILISKQIKDTGALFLEAPVSGSKKPAEDGQLIFLTAGDKPLYEKAAPFLDIMGKSKFYLGEVGNGAAMKLVVNMIMGSMMASFAEGILLSQKVGLDPNVLVEVVSQGAINAPMYSLKGPSMIKSVYPTAFPLKHQQKDMRLALGLAESVSQSTPIAAAANELYKVAKSYGLSDEDFSAVIEALKAAKSREA
B4: nitrilase (Rhodococcus rhodochrous, UniProt A4LA85); chain MVEYTNTFKVAAVQAQPVWFDAAKTVDKTVSIIAEAARNGCELVAFPEVFIPGYPYHIWVDSPLAGMAKFAVRYHENSLTMDSPHVQRLLDAARDHNIAVVVGISERDGGSLYMTQLIIDADGQLVARRRKLKPTHVERSVYGEGNGSDISVYDMPFARLGALNCWEHFQTLTKYAMYSMHEQVHVASWPGMSLYQPEVPAFGVDAQLTATRMYALEGQTFVVCTTQVVTPEAHEFFCENEEQRKLIGRGGGFARIIGPDGRDLATPLAEDEEGILYADIDLSAITLAKQAADPVGHYSRPDVLSLNFNQRRTTPVNTPLSTIHATHTFVPQFGALDGVRELNGADEQRALPSTHSDETDRATASI
B5: enzyme (Streptomyces albidoflavus, UniProt K0J3J2); chain AAGGYVALGDSYSSGVGAGSYDSGSGDCRRTPKAYPALWAAANSPASFDFVACSGAVTSDVLNKQMGPLNSSTSLVSLTIGGNDAGFADVMTTCVLQSEANCIARVNTAKAFVESTLPGRLDSVYSQVRAKAPSANVVVLGYPRFYKLNGTCVAGLTEGERTAINGAADLLNSVISKRAADHGYAYGDIAAAFTGHEICSGDSWLHSVKWTGINDSYHPTAAGQSGGYLPVLNSKA
B6: protein E15D (Rhodopseudomonas palustris, UniProt Q6N3R9); chain MSNVRVLATDLAFPDGPVVMPDGSVVLVEIRAQQLTRVWPDGRKEVVAKVPGGPNGAALGPDGKMYICNNGGFGWFPSRGTMMPGAPAPHEYIGGSIQRVDLQSGEVETLFDKCGEHPLKGPNDLVFDKHGGLWFTDLGKRRARDMDVGAAYYIKPGMTEITEQVFGTLPLNGIGLSPDEATMYAAETPTGRLWAFDLSGPGEVKPRDVIYRGEKGKPICGLGGYQMFDSLAVEASGNVCVATLVSGCISVIAPDGTLVEQVPTGDRVTTNIAFGGPDLKTAYITLSGKGELIAMDWSRPGLPLNFLNK
B7: protein F432L (Streptomyces toyocaensis, UniProt Q8KLK7); chain MTTVLPPLEDTDGLWAALTEAAASVEKLLATLPEHGARSSAERAEIAAAHDAARALRVRFLDTHADAVYDRLTDHRRVHLRLAELVEAAATAFPGLVPTQQQLAVERSLPQAAKEGHEIDQGIFLRAVLRSPLAGPHLLDAMLRPTPRALELLPEFVRTGEVEMEAVHLERRDGVARLTMCRDDRLNAEDGQQVDDMETAVDLALLDPGVRVGLLRGGVMSHPRYRGKRVFSAGINLKYLSQGGISLVDFLMRRELGYIHKLVRGVLTNDDRPGWWHSPRIEKPWVAAVDGFAIGGGAQLLLVFDRVLASSDAYFSLPAAKEGIIPGAANLRLGRFAGPRVSRQVILEGRRIWAKEPEARLLVDEVVEPDELDAAIERSLTRLDGDAVLANRRMLNLADESPDGFRAYMAEFALMQALRLYGHDVIDKVGRLGGRPPA
B8: enzyme N249W (Thermobifida fusca, UniProt Q47RK4); chain MTDVYILDAVRTPFGRYGGALSGIRPDDLAAHVLRALAERSPGLDPAAVDDVFFGDANGAGEDNRNVARMAALLAGWPTSVPGVTLNRLCGSGMESVIAANRAIAVGDASLAVAGGVESMSRAPWVLPKPAQGFPTGHETLYSTTLGWRMVNPAMPEQWTVSLGESTEQVAATYGISRAEQDAFALRSHERAARAWAEGVFDAEITQIPGAELERDESIRETSAEKLAALKPAFRPDGTITAGNASPLWDGAAALLIGDAAAAERVGREPLARIVSRGVAAVDPDVFGIGPVQAAEIALRRAGIGWDDLSVVELNEAFAAQSLACLKLWPDLDPEIVNPNGGAIAIGHPLGASGARIVGTLAHELHRRGGGWGLAAICIGVGQGLAVVLHR
B9: enzyme N1029G (Limosilactobacillus reuteri, UniProt Q5SBN3); chain INGQQYYIDPTTGQPRKNFLLQNGNDWIYFDKDTGAGTNALKLQFDKGTISADEQYRRGNEAYSYDDKSIENVNGYLTADTWYRPKQILKDGTTWTDSKETDMRPILMVWWPNTVTQAYYLNYMKQYGNLLPASLPSFSTDADSAELNHYSELVQQNIEKRISETGSTDWLRTLMHEFVTKNSMWNKDSENVDYGGLQLQGGFLKYVNSDLTKYANSDWRLMNRTATNIDGKNYGGAEFLLANDIDNSNPVVQAEELNWLYYLMNFGTITGNNPEANFDGIRVDAVDGVDVDLLSIARDYFNAAYNMEQSDASANKHINILEDWGWDDPAYVNKIGNPQLTMDDRLRNAIMDTLSGAPDKNQALNKLITQSLVNRANDNTENAVIPSYNFVRAHDSNAQDQIRQAIQAATGKPYGEFNLDDEKKGMEAYINDQNSTNKKWNLYNMPSAYTILLTNKDSVPRVYYGDLYQDGGQYMEHKTRYFDTITNLLKTRVKYVAGGQTMSVDKNGILTNVRFGKGAMNATDTGTDETRTEGIGVVISNNTNLKLNDGESVVLHMGAAHKNQKYRAVILTTEDGVKNYTNDTDAPVAYTDANGDLHFTNTNLDGQQYTAVRGYANPDVTGYLAVWVPAGAADDQDARTAPSDEAHTTKTAYRSNAALDSNVIYEGFSNFIYWPTTESERTNVRIAQNADLFKSWGITTFELAPQYNSSKDGTFLDSIIDNGYAFTDRYDLGMSTPNKYGSDEDLRNALQALHKAGLQAIADWVPDQIYNLPGKEAVTVTRSDDHGTTWEVSPIKNVVYITNTIGGGEYQKKYGGEFLDTLQKEYPQLFSQVYPVTQTTIDPSVKIKEWSAKYFNGTNILHRGAGYVLRSNDGKYYNLGTSTQQFLPSQLSVQDNEGYGFVKEGNNYHYYDENKQMVKDAFIQDSVGNWYYFDKNGNMVANQSPVEISSNGASGTYLFLNNGTSFRSGLVKTDAGTYYYDGDGRMVRNQTVSDGAMTYVLDENGKLVSESFDSSATEAHPLKPGDLNGQK
Sequence of UniProt P0DPA8 (whole entry, looked up): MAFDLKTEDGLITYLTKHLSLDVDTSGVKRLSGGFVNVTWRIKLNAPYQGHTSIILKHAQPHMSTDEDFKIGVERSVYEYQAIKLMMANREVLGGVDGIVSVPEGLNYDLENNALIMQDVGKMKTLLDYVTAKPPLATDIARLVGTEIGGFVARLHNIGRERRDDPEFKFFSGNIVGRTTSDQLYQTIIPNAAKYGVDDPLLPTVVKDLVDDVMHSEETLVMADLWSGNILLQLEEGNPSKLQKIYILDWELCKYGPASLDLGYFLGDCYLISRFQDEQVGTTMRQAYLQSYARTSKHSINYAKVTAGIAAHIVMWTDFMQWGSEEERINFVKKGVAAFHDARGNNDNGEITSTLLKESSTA

Substance = B1 (enzyme H376D); substrate = Nc1ncnc2c1ncn2[C@@H]1O[C@H](CO)[C@H]2OP(=O)(O)O[C@H]21; pH = pH 7.5; temperature = 45 °C; kcat = 3.2 ± 0.767 s⁻¹
Substance = Cj1427c (Campylobacter jejuni, UniProt Q0P8I7); substrate = Nc1nc2c(ncn2[C@@H]2O[C@H](COP(=O)(O)OP(=O)(O)O[C@H]3O[C@H]([C@H](O)CO)[C@@H](O)[C@H](O)[C@@H]3O)[C@@H](O)[C@H]2O)c(=O)[nH]1; pH = pH 7.4; temperature = 30 °C; notes = apparent; kcat = 0.64 ± 0.02 s⁻¹
Substance = OXA-48 (Klebsiella pneumoniae, UniProt Q6XEC0); substrate = O=C(Cc1cccs1)N[C@@H]1C(=O)N2C(C(=O)O)=C(/C=C/c3ccc([N+](=O)[O-])cc3[N+](=O)[O-])CS[C@H]12; pH = pH 7.2; temperature = 30 °C; kcat = 143 ± 24 s⁻¹
Substance = B2 (enzyme L163H/N249W); substrate = CC(=O)SCCNC(=O)CCNC(=O)[C@H](O)C(C)(C)COP(=O)(O)OP(=O)(O)OC[C@H]1O[C@@H](n2cnc3c(N)ncnc32)[C@H](O)[C@@H]1OP(=O)(O)O; pH = pH 7.4; temperature = 37 °C; kcat = 0.00367 ± 0.0006 s⁻¹
Substance = B3 (GLYR2); substrate = NC(=O)C1=CN([C@@H]2O[C@H](COP(=O)(O)OP(=O)(O)OC[C@H]3O[C@@H](n4cnc5c(N)ncnc54)[C@H](OP(=O)(O)O)[C@@H]3O)[C@@H](O)[C@H]2O)C=CC1; pH = pH 7.6; temperature = 30 °C; notes = cofactor varied; kcat = 12 ± 0.8 s⁻¹
Substance = enzyme (Psilocybe cubensis, UniProt P0DPA8); substrate = CN(C)CCc1c[nH]c2cccc(O)c12; pH = pH 7; temperature = 40 °C; kcat = 16.1 s⁻¹
Substance = B4 (nitrilase); substrate = Cc1cccc(C#N)c1; pH = pH 7.5; temperature = 25 °C; kcat = 0.000238 ± 2e-05 s⁻¹
Substance = B5 (enzyme); substrate = CCCCCCCC/C=C\CCCCCCCC(=O)O[C@H](COC(=O)CCCCCCCCCCCCCCC)COP(=O)(O)O; pH = pH 7.2; temperature = 50 °C; notes = apparent; kcat = 630 s⁻¹
Substance = B6 (protein E15D); substrate = O=C1CCc2ccccc2O1; pH = pH 8; notes = NaCl 150 mM, no saturation; together with = CaCl2 1 mM; kcat = > 62 s⁻¹
Substance = B7 (protein F432L); substrate = CC(C)(COP(=O)(O)OP(=O)(O)OC[C@H]1O[C@@H](n2cnc3c(N)ncnc32)[C@H](O)[C@@H]1OP(=O)(O)O)[C@@H](O)C(=O)NCCC(=O)NCCSC(=O)Cc1cc(O)cc(O)c1; pH = pH 7.5; temperature = 24 °C; together with = O2; kcat = 0.03 ± 0.02 s⁻¹
Substance = B8 (enzyme N249W); substrate = CC(C)(COP(=O)(O)OP(=O)(O)OC[C@H]1O[C@@H](n2cnc3c(N)ncnc32)[C@H](O)[C@@H]1OP(=O)(O)O)[C@@H](O)C(=O)NCCC(=O)NCCSC(=O)CC(=O)O; pH = pH 7.4; temperature = 37 °C; kcat = 0.0035 ± 0.004 s⁻¹
Substance = B9 (enzyme N1029G); substrate = OC[C@H]1O[C@@](CO)(O[C@H]2O[C@H](CO)[C@@H](O)[C@H](O)[C@H]2O)[C@@H](O)[C@@H]1O; pH = pH 4.7; temperature = 37 °C; kcat = 32.7 ± 1.2 s⁻¹
